{"data": "Assay results from different studies", "note": "Every numbered part comes from another study and shows a few of its results, in no order.", "UniProt Q8NEB9, sequence (whole entry, looked up)": "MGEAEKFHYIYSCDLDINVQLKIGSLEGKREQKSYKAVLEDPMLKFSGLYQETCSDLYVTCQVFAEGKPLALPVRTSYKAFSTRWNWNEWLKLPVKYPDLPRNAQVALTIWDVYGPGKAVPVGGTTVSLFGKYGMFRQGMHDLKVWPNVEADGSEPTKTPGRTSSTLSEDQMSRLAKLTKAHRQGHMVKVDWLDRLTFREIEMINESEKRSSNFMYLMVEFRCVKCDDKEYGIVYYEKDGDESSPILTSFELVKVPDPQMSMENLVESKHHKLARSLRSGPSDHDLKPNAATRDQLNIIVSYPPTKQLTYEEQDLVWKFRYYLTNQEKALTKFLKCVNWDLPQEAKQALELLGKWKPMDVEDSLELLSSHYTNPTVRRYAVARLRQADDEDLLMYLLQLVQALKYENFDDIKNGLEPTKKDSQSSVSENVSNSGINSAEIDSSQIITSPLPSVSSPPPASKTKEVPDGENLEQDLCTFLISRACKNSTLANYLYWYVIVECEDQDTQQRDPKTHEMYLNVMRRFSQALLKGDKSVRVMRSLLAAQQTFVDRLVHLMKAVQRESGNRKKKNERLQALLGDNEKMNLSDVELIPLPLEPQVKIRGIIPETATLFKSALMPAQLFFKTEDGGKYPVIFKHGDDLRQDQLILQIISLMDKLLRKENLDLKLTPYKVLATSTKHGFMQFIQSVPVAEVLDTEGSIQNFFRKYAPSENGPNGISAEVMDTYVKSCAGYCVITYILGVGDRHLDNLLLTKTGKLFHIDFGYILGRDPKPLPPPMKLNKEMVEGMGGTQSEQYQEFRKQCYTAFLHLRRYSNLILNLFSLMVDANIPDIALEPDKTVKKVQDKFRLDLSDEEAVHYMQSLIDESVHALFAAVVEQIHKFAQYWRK", "UniProt Q13164, sequence (whole entry, looked up)": "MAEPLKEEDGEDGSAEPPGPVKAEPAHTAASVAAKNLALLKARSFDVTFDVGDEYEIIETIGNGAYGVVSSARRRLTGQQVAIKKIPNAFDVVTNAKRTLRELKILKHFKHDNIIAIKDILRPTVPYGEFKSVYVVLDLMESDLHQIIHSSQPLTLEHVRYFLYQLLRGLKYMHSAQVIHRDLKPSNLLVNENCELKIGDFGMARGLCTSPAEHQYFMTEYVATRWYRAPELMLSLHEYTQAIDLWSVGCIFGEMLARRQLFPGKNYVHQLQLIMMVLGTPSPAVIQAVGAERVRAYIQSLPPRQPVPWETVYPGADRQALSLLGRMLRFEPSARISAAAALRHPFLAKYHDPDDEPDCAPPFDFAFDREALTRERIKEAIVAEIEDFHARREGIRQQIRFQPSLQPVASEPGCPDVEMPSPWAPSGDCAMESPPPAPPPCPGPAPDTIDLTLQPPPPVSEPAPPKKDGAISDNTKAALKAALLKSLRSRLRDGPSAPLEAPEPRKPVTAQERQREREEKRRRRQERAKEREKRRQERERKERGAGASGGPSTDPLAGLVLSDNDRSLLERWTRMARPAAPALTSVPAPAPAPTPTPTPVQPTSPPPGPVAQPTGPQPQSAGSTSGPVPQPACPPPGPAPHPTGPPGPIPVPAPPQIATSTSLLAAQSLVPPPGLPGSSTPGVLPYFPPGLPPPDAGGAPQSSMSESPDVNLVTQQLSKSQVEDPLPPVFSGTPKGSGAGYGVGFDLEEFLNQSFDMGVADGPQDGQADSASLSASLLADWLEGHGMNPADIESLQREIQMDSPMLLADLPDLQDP", "UniProt P22455, sequence (whole entry, looked up)": "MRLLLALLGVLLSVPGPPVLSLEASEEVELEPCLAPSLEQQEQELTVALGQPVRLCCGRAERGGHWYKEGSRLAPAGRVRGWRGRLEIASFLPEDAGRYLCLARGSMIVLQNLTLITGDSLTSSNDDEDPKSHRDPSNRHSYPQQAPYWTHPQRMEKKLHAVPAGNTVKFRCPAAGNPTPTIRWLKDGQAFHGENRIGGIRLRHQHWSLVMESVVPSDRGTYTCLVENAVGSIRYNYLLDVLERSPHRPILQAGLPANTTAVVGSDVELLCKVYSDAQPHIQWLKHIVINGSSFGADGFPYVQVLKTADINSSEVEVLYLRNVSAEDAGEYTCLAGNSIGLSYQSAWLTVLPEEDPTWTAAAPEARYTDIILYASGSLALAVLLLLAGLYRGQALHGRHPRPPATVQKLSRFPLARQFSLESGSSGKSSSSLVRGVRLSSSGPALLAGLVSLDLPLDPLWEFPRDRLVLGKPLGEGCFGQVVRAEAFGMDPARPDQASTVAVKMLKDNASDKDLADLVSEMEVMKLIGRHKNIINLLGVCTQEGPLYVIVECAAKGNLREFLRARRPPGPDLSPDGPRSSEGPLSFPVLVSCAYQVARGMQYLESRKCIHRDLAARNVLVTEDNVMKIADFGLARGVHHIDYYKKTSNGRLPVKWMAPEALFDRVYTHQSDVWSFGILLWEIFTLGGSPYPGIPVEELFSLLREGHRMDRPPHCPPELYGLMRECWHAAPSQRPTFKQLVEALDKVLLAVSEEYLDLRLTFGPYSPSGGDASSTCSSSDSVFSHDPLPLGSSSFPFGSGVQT", "UniProt P30291, sequence (whole entry, looked up)": "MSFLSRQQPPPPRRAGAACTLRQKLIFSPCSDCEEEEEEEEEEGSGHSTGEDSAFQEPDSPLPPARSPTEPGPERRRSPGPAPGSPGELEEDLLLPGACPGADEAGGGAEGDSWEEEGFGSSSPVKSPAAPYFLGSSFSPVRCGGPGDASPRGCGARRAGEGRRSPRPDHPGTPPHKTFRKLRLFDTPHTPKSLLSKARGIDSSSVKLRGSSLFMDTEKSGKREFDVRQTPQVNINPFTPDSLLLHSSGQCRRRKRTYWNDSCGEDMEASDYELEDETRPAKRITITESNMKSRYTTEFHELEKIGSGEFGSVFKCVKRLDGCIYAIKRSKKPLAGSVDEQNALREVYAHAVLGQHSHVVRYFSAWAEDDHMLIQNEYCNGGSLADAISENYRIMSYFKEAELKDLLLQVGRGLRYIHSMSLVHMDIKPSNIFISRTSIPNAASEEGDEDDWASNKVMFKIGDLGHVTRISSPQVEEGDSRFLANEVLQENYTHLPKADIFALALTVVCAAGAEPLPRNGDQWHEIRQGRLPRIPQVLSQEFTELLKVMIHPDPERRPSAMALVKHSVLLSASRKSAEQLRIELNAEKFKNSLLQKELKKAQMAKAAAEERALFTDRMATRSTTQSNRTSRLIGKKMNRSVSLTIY", "UniProt Q9H3Y6, sequence (whole entry, looked up)": "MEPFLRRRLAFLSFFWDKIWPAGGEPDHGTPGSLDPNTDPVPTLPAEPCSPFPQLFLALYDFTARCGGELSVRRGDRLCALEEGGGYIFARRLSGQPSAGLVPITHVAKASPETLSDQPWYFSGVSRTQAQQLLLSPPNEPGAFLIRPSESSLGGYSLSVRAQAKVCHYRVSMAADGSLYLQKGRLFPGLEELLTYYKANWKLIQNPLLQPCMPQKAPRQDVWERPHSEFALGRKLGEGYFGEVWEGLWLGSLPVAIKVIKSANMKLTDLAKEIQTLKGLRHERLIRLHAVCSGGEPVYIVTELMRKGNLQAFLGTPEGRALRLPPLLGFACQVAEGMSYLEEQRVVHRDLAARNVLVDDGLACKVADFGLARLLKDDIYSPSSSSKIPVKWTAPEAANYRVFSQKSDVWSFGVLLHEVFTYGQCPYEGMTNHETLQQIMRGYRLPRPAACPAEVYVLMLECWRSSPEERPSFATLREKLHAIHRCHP", "UniProt Q15759, sequence (whole entry, looked up)": "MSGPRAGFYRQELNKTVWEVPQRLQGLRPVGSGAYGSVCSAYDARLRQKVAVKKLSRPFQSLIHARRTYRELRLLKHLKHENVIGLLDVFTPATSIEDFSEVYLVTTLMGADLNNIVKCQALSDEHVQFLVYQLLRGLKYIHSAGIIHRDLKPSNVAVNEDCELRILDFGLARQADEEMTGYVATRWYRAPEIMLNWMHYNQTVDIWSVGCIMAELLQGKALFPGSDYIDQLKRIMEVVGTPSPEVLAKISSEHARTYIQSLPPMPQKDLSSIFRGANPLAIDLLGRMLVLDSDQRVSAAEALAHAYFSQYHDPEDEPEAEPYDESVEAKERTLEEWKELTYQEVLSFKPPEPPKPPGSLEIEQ"}
{"data": "Series 1", "target": "TGF-beta receptor type-1 (TGFBR1, Homo sapiens, UniProt P36897)", "effect on": "enzyme activity", "action": "inhibitor", "tested at": "0.5 µM", "reference": "control", "UniProt P36897, sequence (whole entry, looked up)": "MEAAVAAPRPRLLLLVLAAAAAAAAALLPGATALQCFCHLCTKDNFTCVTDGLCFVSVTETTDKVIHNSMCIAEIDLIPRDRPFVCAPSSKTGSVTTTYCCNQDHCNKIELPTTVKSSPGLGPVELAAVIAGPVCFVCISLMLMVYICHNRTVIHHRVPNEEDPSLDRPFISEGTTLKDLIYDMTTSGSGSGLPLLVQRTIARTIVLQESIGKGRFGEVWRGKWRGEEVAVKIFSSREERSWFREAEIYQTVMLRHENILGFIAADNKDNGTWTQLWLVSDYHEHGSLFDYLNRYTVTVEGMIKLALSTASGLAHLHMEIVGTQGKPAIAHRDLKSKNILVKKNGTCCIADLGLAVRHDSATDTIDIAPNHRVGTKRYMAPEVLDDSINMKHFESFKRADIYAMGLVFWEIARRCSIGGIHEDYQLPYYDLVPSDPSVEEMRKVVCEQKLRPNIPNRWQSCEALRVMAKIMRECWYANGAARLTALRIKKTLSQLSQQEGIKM"}
{"Structure (SMILES)": "CO[C@H]1C[C@@H]2CC[C@@H](C)[C@@](O)(O2)C(=O)C(=O)N2CCCC[C@H]2C(=O)O[C@H]([C@H](C)C[C@@H]2CC[C@@H](O)[C@H](OC)C2)CC(=O)[C@H](C)/C=C(\\C)[C@@H](O)[C@@H](OC)C(=O)[C@H](C)C[C@H](C)/C=C/C=C/C=C/1C", "remaining activity [%]": 99.5}
{"Structure (SMILES)": "COc1ccc(CNC(=O)Nc2ncc([N+](=O)[O-])s2)cc1", "remaining activity [%]": 95.8}
{"Structure (SMILES)": "Nc1[nH]nc2nc3ccccc3nc12", "remaining activity [%]": 98.1}
{"Structure (SMILES)": "Oc1ccc(-c2nc(-c3ccncc3)c(-c3ccc(F)cc3)[nH]2)cc1", "remaining activity [%]": 108}
{"Structure (SMILES)": "O=C(Nc1cccc(Nc2cc(Nc3cccc(C(F)(F)F)c3)ncn2)c1)C1CC1", "remaining activity [%]": 97.4}
{"Structure (SMILES)": "O=C(O)c1ccc2c3c1cccc3c(=O)n1c3ccccc3nc21", "remaining activity [%]": 99.4}
{"Structure (SMILES)": "O=c1c2ccccc2[nH]c(=S)n1CCN1CCC(=C(c2ccc(F)cc2)c2ccc(F)cc2)CC1", "remaining activity [%]": 96.2}
{"Structure (SMILES)": "O=C(CCCc1ccc(-c2ccccc2F)cc1)Nc1ccc(O)cc1", "remaining activity [%]": 102}
{"Structure (SMILES)": "COc1cc2nccc(Oc3ccc(NC(=S)NC(=O)c4ccccc4C)cc3)c2cc1OC", "remaining activity [%]": 98}
{"Structure (SMILES)": "CC(C)[C@H](CO)Nc1nc(Nc2cc(N)cc(Cl)c2)c2ncn(C(C)C)c2n1", "remaining activity [%]": 103}
{"Structure (SMILES)": "COc1ccc(OC)c2c(=S)c3ccccc3[nH]c12", "remaining activity [%]": 99.1}
{"Structure (SMILES)": "O=S(=O)(c1cccc2cnccc12)N1CCCNCC1", "remaining activity [%]": 98.4}
{"Structure (SMILES)": "CN(C)c1ccc(C=C2C(=O)Nc3ccccc32)cc1", "remaining activity [%]": 96.7}
{"Structure (SMILES)": "Cc1nc(-c2ccccc2)c(-c2ccncc2)o1", "remaining activity [%]": 102}
{"Structure (SMILES)": "CNC(=O)c1cc(Oc2ccc(NC(=O)Nc3ccc(Cl)c(C(F)(F)F)c3)cc2)ccn1", "remaining activity [%]": 94.1}
{"data": "Series 2", "SMILES": "C=CC(=O)N1CCC([C@@H]2CCNc3c(C(N)=O)c(-c4ccc(Oc5ccccc5)cc4)nn32)CC1", "effect on": "enzyme activity", "action": "inhibitor", "tested at": "1 µM"}
{"target": "Tyrosine-protein kinase HCK (HCK, Homo sapiens, UniProt P08631)", "inhibition": "81%"}
{"target": "Tyrosine-protein kinase ABL1, phosphorylated (ABL1, Homo sapiens, UniProt P00519, Y253F)", "inhibition": "11%"}
{"target": "Mitogen-activated protein kinase 11 (MAPK11, Homo sapiens, UniProt Q15759)", "inhibition": "8%"}
{"target": "Mitogen-activated protein kinase 7 (MAPK7, Homo sapiens, UniProt Q13164)", "inhibition": "7%"}
{"target": "Phosphatidylinositol 3-kinase catalytic subunit type 3 (PIK3C3, Homo sapiens, UniProt Q8NEB9)", "inhibition": "0%"}
{"target": "Receptor-type tyrosine-protein kinase FLT3 (FLT3, Homo sapiens, UniProt P36888, N841I)", "inhibition": "35%"}
{"target": "Calcium/calmodulin-dependent protein kinase type II subunit beta (CAMK2B, Homo sapiens, UniProt Q13554)", "inhibition": "0%"}
{"data": "Series 3", "SMILES": "COc1ccc2[nH]c3c4[nH]c5ccc(OC)cc5c4c4c(c3c2c1)C(=O)NC4=O", "technique": "competitive binding panel", "tested at": "1 µM", "reference": "vehicle"}
{"target": "Tyrosine-protein kinase Blk (BLK, Homo sapiens, UniProt P51451)", "remaining binding": "71%"}
{"target": "Phosphatidylinositol 5-phosphate 4-kinase type-2 beta (PIP4K2B, Homo sapiens, UniProt P78356)", "test": "measured: PIP5K2B", "remaining binding": "100%"}
{"target": "Wee1-like protein kinase (WEE1, Homo sapiens, UniProt P30291)", "remaining binding": "53%"}
{"target": "Proto-oncogene tyrosine-protein kinase Src (SRC, Homo sapiens, UniProt P12931)", "remaining binding": "87%"}
{"target": "Cyclin-dependent kinase 11B (CDK11B, Homo sapiens, UniProt P21127)", "test": "measured: CDC2L1", "remaining binding": "90%"}
{"data": "Series 4", "Compound": "NS(=O)(=O)c1cc(NC(=O)Cc2ccccc2)ccc1Oc1cccc(Cl)c1", "effect on": "cell-free assay", "technique": "competition with immobilised ligand", "tested at": "1 µM"}
{"target": "Tyrosine-protein kinase Yes (YES1, Homo sapiens, UniProt P07947)", "remaining binding [%]": 86}
{"target": "Tyrosine-protein kinase ABL1, non-phosphorylated (ABL1, Homo sapiens, UniProt P00519)", "remaining binding [%]": 78}
{"target": "Fibroblast growth factor receptor 4 (FGFR4, Homo sapiens, UniProt P22455)", "remaining binding [%]": 95}
{"target": "Serine/threonine-protein kinase 3 (STK3, Homo sapiens, UniProt Q13188)", "remaining binding [%]": 78}
{"target": "Phosphatidylinositol 4,5-bisphosphate 3-kinase catalytic subunit alpha isoform (PIK3CA, Homo sapiens, UniProt P42336, H1047Y)", "remaining binding [%]": 81}
{"target": "Tyrosine-protein kinase ABL1, phosphorylated (ABL1, Homo sapiens, UniProt P00519, M351T)", "remaining binding [%]": 78}
{"target": "Tyrosine-protein kinase Srms (SRMS, Homo sapiens, UniProt Q9H3Y6)", "remaining binding [%]": 78}
{"target": "Serine/threonine-protein kinase DCLK3 (DCLK3, Homo sapiens, UniProt Q9C098)", "remaining binding [%]": 92}
{"note": "Excerpt of the above (series 2):"}
{"target": "Tyrosine-protein kinase HCK (HCK, Homo sapiens, UniProt P08631)", "inhibition": "81%"}
{"target": "Tyrosine-protein kinase ABL1, phosphorylated (ABL1, Homo sapiens, UniProt P00519, Y253F)", "inhibition": "11%"}
{"target": "Mitogen-activated protein kinase 11 (MAPK11, Homo sapiens, UniProt Q15759)", "inhibition": "8%"}
{"target": "Mitogen-activated protein kinase 7 (MAPK7, Homo sapiens, UniProt Q13164)", "inhibition": "7%"}
{"target": "Phosphatidylinositol 3-kinase catalytic subunit type 3 (PIK3C3, Homo sapiens, UniProt Q8NEB9)", "inhibition": "0%"}
